Experimental data collected from several papers.
Numbered parts are unrelated; each lists some results of a single study. Positions count from the first letter of the parent shown.

Series 1
Target: CCNB1, cyclin fold, Cln2 fusion (human)
Method: yeast growth competition, sequencing
Sample: yeast
Notes: weak parent motif
Baseline: not given
Direction: higher = stronger binding
Starting sequence: CDKN1B docking peptide (human); PSACRNLFGPVDH
| Variant | normalised enrichment score |
| --- | --- |
| S2Y | -0.231 |
| L7E | 0.296 |
| R5I | 0.209 |
| D12T | 0.363 |
| P1I | 0.231 |
| F8Q | 0.574 |
| C4H | 0.0878 |
| D12S | -0.0699 |
| F8V | -0.365 |
| P10N | 0.688 |
| G9I | 0.454 |
| A3P | 0.175 |
| V11K | 0.554 |
| H13R | 0.504 |
| P10C | 0.318 |
| P1L | 0.593 |
| N6E | 0.212 |
| V11D | 0.531 |
| N6K | 1.06 |
| C4V | 0.63 |
| P1M | 0.594 |
| G9M | 0.625 |
| P10M | 0.159 |
| A3H | 0.25 |
| F8S | 0.501 |

Series 2
Target: Ras GTPase-activating protein-binding protein 1, full length (G3BP1, Homo sapiens, UniProt Q13283)
Sequence of UniProt Q13283 (whole entry, looked up): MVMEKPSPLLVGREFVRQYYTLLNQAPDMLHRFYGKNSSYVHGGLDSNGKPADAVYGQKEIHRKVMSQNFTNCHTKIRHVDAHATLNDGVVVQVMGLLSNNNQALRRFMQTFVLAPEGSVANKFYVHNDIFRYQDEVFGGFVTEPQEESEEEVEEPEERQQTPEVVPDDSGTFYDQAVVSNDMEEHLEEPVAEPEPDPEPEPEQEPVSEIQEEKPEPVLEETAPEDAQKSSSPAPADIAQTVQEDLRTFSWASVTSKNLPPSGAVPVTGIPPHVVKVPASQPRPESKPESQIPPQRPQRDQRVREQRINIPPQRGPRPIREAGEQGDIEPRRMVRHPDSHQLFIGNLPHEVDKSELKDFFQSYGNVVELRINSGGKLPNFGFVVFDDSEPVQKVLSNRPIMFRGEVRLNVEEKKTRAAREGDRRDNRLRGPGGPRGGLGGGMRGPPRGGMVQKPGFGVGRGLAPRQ
Method: RNA Bind-n-Seq
Molecule type: RNA
Sample: in vitro
Concentration: 200 nM
Notes: whole 134-nt RNA, ends assumed
Together with: 150 mM KCl
Baseline: input library
Direction: higher = stronger binding
Constant ends, left off below: GGGAGUUCUACAGUCCGACGAUC … UGGAAUUCUCGGGUGUCAAGG
| Sequence | log2 enrichment |
| --- | --- |
| UGUGCUACACAUCGUAUGUACCGAAUCGGGGUUUUUUUGGGGAAAAAGGGGUUUUUUUGGGGAAAGUAUUAUGUUACGCCGUUCGGAUCU | -0.321 |
| UAACUUUAGAGGAGGAUCUGAUGGAUAUGGCAGUGGACGUGGAUUUGGGGAUGGCUAUAAUGGGUAUGGAGGAUGACCUGGAGGUGGCAA | 0.226 |
| ACCAUGCAGGUGGGCAUCUUUGGGAAGUGGGGCAAGGGGGGGAUAGGGAGGGGGGUAACACUUUGGGAACAGGUGGUCCCAGGUCGUCUC | 1.45 |
| CUGUGCUACACAUCGUAUGUACCGAAUCGGGGUUUUUUUGGUUUUUUUGGGUUUUUUUGGGAAAGUAUUAUGUUACGCCGUUCGGAUCUG | -1 |
| CACAGACAACACGCACCCACGCAGACACAGAGGGAAGGGGUUGGGAUGGGGACAGGGUGCACAGCAGGGCGGGGUAGGACCCCAGCCCCU | 1.99 |
| GCAGGAAGUAAAAACAAAUGGAAAUGCUUCGGAUAGUGGCAGGGGUGGGGGUUGCUAAGGAAAGGAUGGGAUGGGAGUGGGUAAAGAGUU | 0.984 |
| UGGGAGGUGGAUCUUGUUUAUUUUUUUAGCUCAUUUCCAGGGGUGGGAAUUUUUUUUUAAUAUGUGUCAUGAAUAAAGUUGUUUUUGAAA | -0.0934 |
| CAAGUCCUGUGCUACACAUCGUAUGUACCGAAUCGGGAGGGUGGGAAAAAAAGGGAAAGUAUUAUGUUACGCCGUUCGGAUCUGCACUUC | 0.307 |
| GCAGGAAGUAAAAACAAAUGGAAAUGCUUCGGAGAGUGGCAGGGGUGGGGGUUGCUAAGGAAAGGGUGGGAUGGGAGUGGGUAAAGAGUU | 1.17 |

Series 3
Target: Interferon regulatory factor 3, full length, phosphomimetic (IRF3, Homo sapiens, UniProt Q14653, residues 1-427, S386D/S396D/S398D/S402D/T404D/S405D)
Method: protein-binding microarray
Molecule type: double-stranded DNA, one strand shown
Sample: in vitro
Concentration: 2540 nM top
Notes: 60-bp whole probe
Together with: salmon DNA 0.4 mg/ml
Baseline: random background probes
Direction: higher = stronger binding
Constant ends, left off below: GCCTAGCAC … GTCTTGATTCGCTTGACGCTGCTG
Target sequence (chain): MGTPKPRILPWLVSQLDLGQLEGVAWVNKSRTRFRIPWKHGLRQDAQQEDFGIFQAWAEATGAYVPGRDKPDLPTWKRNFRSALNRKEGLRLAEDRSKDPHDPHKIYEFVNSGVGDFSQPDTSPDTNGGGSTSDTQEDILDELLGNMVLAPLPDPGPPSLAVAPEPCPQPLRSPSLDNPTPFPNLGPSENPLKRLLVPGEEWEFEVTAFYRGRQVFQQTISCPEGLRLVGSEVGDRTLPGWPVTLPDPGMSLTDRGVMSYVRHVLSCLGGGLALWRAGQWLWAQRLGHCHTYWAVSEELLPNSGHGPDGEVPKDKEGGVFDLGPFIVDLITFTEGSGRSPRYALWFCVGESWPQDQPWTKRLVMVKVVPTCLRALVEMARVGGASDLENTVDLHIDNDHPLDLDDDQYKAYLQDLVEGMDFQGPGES
| Sequence | fitted relative affinity [z-score] |
| --- | --- |
| TTAGGTAGCGGTTTCGGTTAGTGCTAG | 5.18 |
| GACGATCTCAGTTTGGAGACGTGCTAG | 0.629 |
| CTAATTTCCATTTTCTAAATGTGCTAG | 6.38 |
| TTGCCTCACCTCACCTGTCCGTGCTAG | 0.553 |
| TTATATCTCAGTTTCGATTAGTGCTAG | 3.87 |
| TCATGTGTCTGATTATTACTGTGCTAG | 0.387 |
| GACGGTTGCGACTATCGGGACGTGCTA | 0.139 |
| TTAGGTATCGGTCTCGGTGAGTGCTAG | 4.35 |
| TAAGGTTTCGGACTGGGTTAGTGCTAG | 4.14 |
| GACGATCTCAGTATCGCGACGTGCTAG | 0.744 |
| TTAGGTATCGGACTGGCTTAGTGCTAG | 1.02 |
| GACGATTCTAGTTTCGAGACGTGCTAG | 2.8 |
| GACGAACTGGGGTTTCGCGACGTGCTA | -0.387 |
| GTTTTTTTCTACTTCTCTTTGTGCTAG | 1.87 |
| TTGGATTTCAGTTTCGATTAGTGCTAG | 5.26 |
| GACCGACTGCTTCTCCTGACGTGCTAG | 0.0201 |
| TCATCTTTCACTGCTGCACTGTGCTAG | 1.35 |
| GGAAATATTTACCTCTCACGGTGCTAG | 0.468 |
| GACGATTCCAGTTTCTAGACGTGCTAG | 2.49 |

Further values, each from its own experiment
| Substance | target | test | test system | setting | scale | measurement | value |
| --- | --- | --- | --- | --- | --- | --- | --- |
| PhoQ, residues 284 288 289 292 302 303 TLSLKA | PhoP, residues 12 14 15 18 19 AQCLL (Escherichia coli, UniProt P23836) | Sort-seq, item: YFP reporter | E. coli | PhoQ-PhoP variant library, together with: 10 µM Mg2+ | baseline: high Mg2+ state, higher = stronger signaling | fold induction | 0.295 |

A few entries again (series 1):
| Variant | normalised enrichment score |
| --- | --- |
| P10M | 0.159 |
| V11D | 0.531 |
| G9M | 0.625 |
| F8V | -0.365 |
| N6K | 1.06 |
| A3H | 0.25 |
| L7E | 0.296 |
| R5I | 0.209 |
